Measurements collected from several papers.
Each line is one published result; not all experiments were run side by side. Several values in a cell are separate wells, animals, samples, runs or records. ± gives the spread as reported.
FOLH1: Glutamate carboxypeptidase 2 (FOLH1, Homo sapiens, UniProt Q04609)
ESR1: Estrogen receptor (ESR1, Homo sapiens, UniProt P03372)
IDO1: Indoleamine 2,3-dioxygenase 1 (IDO1, Homo sapiens, UniProt P14902)
APP amyloid-beta peptide: Amyloid-beta precursor protein, amyloid-beta peptide (APP, Homo sapiens, UniProt P05067)
SYK with FCER1G: Tyrosine-protein kinase SYK, with FCER1G (SYK, Homo sapiens, UniProt P43405)

Protein sequences, listed by entry. Tags and fused reporters are not part of them. Lines headed by an entry give the natural chain unless they say otherwise; changes in a name come on top. Residues count along the entry.
UniProt P03372, whole entry: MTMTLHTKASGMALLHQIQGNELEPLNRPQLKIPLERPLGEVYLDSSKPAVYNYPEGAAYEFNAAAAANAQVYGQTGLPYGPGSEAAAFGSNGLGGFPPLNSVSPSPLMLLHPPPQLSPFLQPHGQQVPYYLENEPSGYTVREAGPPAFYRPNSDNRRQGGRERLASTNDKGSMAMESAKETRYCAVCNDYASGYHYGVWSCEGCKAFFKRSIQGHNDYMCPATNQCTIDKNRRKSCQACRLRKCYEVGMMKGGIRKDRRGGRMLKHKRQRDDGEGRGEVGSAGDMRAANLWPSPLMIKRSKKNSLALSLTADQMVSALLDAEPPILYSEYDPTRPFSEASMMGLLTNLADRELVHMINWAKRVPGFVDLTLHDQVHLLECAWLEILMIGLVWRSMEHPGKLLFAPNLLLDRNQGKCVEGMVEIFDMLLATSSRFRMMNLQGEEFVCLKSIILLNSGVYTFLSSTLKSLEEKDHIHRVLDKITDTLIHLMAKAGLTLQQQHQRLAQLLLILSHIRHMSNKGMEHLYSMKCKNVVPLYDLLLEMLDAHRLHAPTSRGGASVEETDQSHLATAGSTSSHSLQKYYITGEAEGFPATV
UniProt P05067, whole entry, looked up: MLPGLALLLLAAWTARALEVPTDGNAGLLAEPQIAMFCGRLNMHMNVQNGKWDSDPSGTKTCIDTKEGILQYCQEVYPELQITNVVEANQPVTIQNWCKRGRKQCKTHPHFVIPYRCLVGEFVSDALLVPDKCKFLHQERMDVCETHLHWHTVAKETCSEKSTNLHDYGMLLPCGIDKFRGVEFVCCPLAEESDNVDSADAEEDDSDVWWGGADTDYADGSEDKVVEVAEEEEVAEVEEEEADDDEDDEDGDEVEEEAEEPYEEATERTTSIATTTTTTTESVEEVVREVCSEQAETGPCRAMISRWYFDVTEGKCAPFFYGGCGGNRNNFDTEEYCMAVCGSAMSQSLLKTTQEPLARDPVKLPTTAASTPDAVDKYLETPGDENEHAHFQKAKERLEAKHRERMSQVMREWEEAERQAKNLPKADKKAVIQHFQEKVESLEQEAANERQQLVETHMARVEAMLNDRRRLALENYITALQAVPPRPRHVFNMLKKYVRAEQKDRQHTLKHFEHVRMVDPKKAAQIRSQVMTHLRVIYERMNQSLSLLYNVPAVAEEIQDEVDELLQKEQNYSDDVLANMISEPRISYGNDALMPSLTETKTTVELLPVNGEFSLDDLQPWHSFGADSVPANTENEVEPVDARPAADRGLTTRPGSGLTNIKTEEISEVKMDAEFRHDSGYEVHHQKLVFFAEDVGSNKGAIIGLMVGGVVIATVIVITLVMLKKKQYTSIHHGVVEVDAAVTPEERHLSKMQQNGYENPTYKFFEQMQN
UniProt P45983, 1-384 isoform 3: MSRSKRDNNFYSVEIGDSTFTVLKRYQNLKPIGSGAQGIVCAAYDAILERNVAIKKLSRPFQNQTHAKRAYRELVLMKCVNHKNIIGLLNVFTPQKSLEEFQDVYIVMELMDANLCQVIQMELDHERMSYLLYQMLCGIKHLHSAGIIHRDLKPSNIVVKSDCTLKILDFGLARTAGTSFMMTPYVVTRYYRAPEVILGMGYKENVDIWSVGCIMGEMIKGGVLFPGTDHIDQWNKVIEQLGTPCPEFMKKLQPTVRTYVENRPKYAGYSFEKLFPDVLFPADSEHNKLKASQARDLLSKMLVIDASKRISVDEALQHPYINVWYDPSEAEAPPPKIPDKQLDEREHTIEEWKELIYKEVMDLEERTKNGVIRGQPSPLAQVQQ
UniProt O00167, whole entry: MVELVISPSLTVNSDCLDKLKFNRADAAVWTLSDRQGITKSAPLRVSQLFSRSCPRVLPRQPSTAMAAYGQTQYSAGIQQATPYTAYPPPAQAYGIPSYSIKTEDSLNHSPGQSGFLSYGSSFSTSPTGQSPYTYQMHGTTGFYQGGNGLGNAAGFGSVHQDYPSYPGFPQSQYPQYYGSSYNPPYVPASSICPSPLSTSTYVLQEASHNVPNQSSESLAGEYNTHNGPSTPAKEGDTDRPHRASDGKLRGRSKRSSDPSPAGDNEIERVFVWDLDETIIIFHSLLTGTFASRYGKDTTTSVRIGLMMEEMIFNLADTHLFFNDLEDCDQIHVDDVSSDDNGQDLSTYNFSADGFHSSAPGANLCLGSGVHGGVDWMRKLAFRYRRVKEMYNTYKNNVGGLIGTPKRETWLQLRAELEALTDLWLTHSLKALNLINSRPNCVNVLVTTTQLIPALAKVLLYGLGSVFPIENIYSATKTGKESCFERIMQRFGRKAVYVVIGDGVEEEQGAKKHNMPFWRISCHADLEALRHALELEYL
UniProt P07949, 29-1114 limits assumed: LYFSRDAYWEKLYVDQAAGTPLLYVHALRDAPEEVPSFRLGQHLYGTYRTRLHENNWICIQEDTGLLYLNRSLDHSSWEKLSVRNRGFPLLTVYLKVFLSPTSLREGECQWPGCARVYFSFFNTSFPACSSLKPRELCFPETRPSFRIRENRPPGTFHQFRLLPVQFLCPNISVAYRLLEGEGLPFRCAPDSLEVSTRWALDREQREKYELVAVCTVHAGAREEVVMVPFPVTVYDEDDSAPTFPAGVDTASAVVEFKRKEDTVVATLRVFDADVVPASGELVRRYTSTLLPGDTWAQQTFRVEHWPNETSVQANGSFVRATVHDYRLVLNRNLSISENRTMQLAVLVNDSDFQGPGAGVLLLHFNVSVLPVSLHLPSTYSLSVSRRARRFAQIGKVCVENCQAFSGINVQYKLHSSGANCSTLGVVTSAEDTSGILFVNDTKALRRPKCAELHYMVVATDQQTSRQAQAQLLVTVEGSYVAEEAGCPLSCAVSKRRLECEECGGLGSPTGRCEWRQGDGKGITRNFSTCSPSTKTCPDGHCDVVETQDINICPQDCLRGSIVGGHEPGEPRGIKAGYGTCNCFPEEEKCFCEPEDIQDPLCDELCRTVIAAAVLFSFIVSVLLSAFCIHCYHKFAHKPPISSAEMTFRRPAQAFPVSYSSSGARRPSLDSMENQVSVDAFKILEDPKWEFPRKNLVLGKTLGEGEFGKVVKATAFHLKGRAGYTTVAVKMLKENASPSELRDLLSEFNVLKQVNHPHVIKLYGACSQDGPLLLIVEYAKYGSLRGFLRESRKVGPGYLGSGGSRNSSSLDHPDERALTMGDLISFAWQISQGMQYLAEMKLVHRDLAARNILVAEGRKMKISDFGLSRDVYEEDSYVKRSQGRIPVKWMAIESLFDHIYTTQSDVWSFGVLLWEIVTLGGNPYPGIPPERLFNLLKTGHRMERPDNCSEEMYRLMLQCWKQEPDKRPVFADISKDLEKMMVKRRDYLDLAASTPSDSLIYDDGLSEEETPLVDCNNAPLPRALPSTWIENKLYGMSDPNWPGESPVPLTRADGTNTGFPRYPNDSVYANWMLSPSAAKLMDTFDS
UniProt P07949, whole entry, looked up, stated change not applied: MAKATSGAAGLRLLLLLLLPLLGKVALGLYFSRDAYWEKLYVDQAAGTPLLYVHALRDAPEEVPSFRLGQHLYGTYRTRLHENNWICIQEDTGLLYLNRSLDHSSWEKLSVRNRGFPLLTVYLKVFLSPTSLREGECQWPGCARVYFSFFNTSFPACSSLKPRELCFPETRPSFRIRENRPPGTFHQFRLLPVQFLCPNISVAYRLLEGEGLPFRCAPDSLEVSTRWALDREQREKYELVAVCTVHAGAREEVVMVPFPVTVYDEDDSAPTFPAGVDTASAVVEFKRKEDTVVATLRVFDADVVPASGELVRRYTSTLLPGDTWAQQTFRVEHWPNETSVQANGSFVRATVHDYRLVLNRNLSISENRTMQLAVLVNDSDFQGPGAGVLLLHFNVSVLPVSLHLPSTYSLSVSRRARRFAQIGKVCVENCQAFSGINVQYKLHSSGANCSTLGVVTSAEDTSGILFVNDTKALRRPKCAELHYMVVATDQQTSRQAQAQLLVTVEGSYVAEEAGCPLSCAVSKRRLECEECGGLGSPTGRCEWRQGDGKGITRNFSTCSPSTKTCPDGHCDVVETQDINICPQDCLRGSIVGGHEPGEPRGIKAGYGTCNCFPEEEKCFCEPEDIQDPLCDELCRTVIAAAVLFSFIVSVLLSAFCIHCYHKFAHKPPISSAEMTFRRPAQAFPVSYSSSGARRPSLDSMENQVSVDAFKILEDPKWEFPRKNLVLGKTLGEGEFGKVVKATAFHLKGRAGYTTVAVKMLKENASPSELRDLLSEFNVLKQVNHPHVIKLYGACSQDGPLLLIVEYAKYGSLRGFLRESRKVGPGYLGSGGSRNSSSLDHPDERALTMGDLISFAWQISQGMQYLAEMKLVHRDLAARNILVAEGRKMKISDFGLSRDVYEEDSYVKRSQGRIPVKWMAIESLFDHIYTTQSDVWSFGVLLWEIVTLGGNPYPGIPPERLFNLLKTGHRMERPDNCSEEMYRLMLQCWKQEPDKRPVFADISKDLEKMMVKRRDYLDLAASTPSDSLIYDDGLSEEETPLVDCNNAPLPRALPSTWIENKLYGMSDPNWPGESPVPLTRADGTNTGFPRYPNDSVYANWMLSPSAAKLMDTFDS
UniProt P29466, whole entry, looked up: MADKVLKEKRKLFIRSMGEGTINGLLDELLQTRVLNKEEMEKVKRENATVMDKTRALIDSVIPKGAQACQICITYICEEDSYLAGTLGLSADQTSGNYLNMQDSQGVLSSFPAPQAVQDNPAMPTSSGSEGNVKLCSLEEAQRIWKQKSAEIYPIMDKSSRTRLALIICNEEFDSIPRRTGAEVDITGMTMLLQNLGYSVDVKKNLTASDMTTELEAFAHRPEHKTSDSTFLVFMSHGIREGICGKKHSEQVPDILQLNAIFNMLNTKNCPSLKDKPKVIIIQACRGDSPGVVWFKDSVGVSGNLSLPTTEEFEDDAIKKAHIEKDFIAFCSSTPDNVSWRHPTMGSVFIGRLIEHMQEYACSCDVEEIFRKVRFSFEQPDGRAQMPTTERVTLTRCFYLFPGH
UniProt A0A8I3MXG6, 1-394: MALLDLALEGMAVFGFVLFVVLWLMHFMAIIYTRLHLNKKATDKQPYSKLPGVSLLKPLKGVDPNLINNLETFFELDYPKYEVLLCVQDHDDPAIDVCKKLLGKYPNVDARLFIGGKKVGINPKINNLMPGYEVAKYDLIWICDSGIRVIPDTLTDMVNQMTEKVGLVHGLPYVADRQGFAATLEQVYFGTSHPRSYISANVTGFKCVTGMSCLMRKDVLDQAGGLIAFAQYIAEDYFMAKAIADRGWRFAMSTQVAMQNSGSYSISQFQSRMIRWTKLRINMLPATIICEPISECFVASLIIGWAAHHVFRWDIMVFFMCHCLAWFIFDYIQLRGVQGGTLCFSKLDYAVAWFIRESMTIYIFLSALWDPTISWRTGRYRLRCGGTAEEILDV
UniProt P33176, whole entry, looked up: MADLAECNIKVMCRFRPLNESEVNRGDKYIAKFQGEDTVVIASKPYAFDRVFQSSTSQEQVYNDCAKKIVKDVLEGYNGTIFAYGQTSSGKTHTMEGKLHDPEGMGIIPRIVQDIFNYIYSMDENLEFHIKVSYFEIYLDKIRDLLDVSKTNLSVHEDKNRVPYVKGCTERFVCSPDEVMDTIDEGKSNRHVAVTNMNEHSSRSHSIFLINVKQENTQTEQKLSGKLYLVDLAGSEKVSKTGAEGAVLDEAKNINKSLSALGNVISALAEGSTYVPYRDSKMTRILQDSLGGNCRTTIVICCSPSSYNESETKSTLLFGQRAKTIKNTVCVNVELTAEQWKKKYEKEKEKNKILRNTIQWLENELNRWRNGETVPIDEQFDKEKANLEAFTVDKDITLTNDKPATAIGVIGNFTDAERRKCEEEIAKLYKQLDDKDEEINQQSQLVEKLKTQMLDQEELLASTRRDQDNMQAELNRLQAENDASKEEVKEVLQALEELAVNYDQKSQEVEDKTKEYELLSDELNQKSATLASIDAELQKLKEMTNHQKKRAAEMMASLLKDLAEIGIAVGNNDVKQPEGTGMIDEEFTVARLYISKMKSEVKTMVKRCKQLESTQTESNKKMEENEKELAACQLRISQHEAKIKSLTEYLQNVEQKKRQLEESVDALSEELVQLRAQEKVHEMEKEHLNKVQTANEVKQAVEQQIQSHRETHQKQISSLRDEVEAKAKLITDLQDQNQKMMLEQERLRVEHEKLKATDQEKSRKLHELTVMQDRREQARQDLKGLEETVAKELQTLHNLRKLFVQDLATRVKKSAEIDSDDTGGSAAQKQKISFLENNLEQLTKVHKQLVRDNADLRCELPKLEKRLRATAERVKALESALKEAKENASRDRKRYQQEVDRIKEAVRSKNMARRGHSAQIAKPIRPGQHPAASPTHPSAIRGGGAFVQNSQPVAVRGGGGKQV
UniProt Q9BV23, whole entry: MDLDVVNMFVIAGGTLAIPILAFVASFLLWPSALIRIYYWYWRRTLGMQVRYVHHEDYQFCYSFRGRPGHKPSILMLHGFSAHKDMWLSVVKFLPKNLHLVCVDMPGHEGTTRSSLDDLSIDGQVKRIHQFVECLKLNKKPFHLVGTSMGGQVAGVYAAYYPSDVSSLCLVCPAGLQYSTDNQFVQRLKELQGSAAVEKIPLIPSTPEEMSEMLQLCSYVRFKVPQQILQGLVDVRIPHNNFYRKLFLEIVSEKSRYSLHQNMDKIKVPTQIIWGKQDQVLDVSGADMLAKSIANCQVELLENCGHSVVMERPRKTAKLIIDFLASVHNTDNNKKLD

SMILES	target	assay	system	conditions	scale	IC50
O=C(O)CCC(NS(=O)(=O)c1ccccn1)C(=O)O (centres unmarked)	FOLH1	enzyme activity, inhibitor, HPLC	–	15 min, pH 7.4, 37 °C, 1% Triton X-100, added: 10 mM glutamate dipeptide substrate	–	> 100000 nM
Cc1cc(NC(=O)c2cccc(NC(=O)C3=CC(C)(C)CC3=O)c2)ccc1Nc1nccc(-c2cccnc2)n1	MAPK8 (Homo sapiens, UniProt P45983)	enzyme activity	–	added: glutathione 10 mM	–	254 ± 55 nM
CCn1c(=Cc2cccc[n+]2C)sc(=C2Sc3ccccc3N2C)c1=O	Heat shock 70 kDa protein 1A, with BAG2 (HSPA1A, Homo sapiens, UniProt P0DMV8)	Hsp70-Bag2 interaction, inhibitor, flow cytometry (FCPIA)	–	added: labeled Bag2 50 nM	–	39000 ± 4000 nM
CCOc1ccc(S(=O)(=O)NC(=O)Cc2ccc(I)cc2)cc1Br	CGAS (Homo sapiens, UniProt Q8N884)	enzyme activity, inhibitor, Kinase-Glo ATP depletion	–	25 °C, 100 nM enzyme	–	666 nM and 660 nM
O=C(Cn1c(-c2nccs2)nc2ccccc21)Nc1ccc2ccccc2c1	IMPDH2 (Homo sapiens, UniProt P12268)	enzyme activity, inhibitor	–	–	lower bound	≥ 40000 nM
O=C(N/N=C/c1ccc(Sc2ncccn2)o1)c1cccc(OC(F)(F)F)c1	Protein phosphatase EYA2 (Homo sapiens, UniProt O00167)	tyrosine phosphatase activity, inhibitor	–	–	–	3390 nM
O=C(CC1SC(=NN=Cc2ccccc2[N+](=O)[O-])NC1=O)Nc1ccc(C(=O)O)cc1 (centres unmarked)	PPP3CA (Homo sapiens, UniProt Q08209)	phosphatase activity, inhibitor, malachite green	–	added: phosphopeptide substrate at Km	–	63000 nM
COC(=O)N1CCN(CCCOc2ccccc2NC(=O)NC23CC4CC(CC(C4)C2)C3)CC1	EPHX2 (Homo sapiens, UniProt P34913)	enzyme activity, inhibitor	–	pH 7.0, 30 °C, added: CMNPC 5 µM	–	9100 nM
Cn1nc(-c2ccc(CC(=O)Nc3cc(C(C)(C)C)on3)cc2)c2c(N)ncnc21	RET (Homo sapiens, UniProt P07949)	inhibitor	–	–	–	0.57 ± 0.05 nM
O=C(CCCn1c(=S)[nH]c2ccccc2c1=O)N1CCN(c2ccccc2C(F)(F)F)CC1	ESR1	reporter gene, antagonist	HEC-1 cells transfected with ERα	added: estradiol 1 nM	–	11900 nM
N#Cc1cnc(Nc2nc3ccccc3o2)nc1-c1cccc(Cl)c1	Grm5 (Rattus norvegicus, UniProt P31424)	calcium mobilization, negative allosteric modulator	–	added: glutamate EC80	–	2830 ± 1320 nM
CC1=CC(C)=NC1=C(CCCC(=O)NCCCCCC(=O)NCCCC[C@H](NC(=O)N[C@@H](CCC(=O)O)C(=O)O)C(=O)O)c1[nH]c(C)cc1C	FOLH1	binding, radioligand competition	LNCaP	2 h, room temperature, added: [177Lu]Lu-PSMA-617	–	> 1000 nM
FC(F)(F)c1cccc(CCN2CCN(c3cc(N4CCCC4)nc(N4CCCC4)n3)CC2)c1	Caspase-1 (CASP1, Homo sapiens, UniProt P29466)	enzyme activity, inhibitor	–	30 min preincubation, added: Ac-WEHD-AMC 10 µM	–	188 ± 27 nM
CC(=O)Nc1ccc(/C=C/c2c[nH]c3ccc(C#N)cc23)cc1	IDO1	enzyme activity, inhibitor	–	–	–	5200 nM
Nc1c(Cl)ccc2cccnc12	Methionine aminopeptidase 2 (Homo sapiens, UniProt P50579)	enzyme activity, inhibitor, coupled	–	added: Met-Pro-pNA substrate, Mn2+ 10 µM	–	> 15000 nM
COc1ccc2nc3ccccc3c(SCCCN)c2c1	HASPIN (Homo sapiens, UniProt Q8TF76)	inhibitor, TR-FRET	–	added: histone H3 peptide	–	17 nM
N#Cc1ccc2[nH]cc(/C=C/c3ccc([N+](=O)[O-])cc3F)c2c1	APP amyloid-beta peptide	Aβ42 oligomerisation, ELISA	–	–	–	> 20000 nM
O=C(CC1Cc2ccccc2C1)N[C@H](CN1CC[C@@H](F)C1)[C@H](O)c1ccc2c(c1)OCCO2	UGCG (Canis lupus familiaris, UniProt A0A8I3MXG6)	inhibitor, item: glucosylceramide	MDCK	24 h	–	6.6 nM
COCCN1C(=O)C(C)(C)c2cc(-c3csc(NC(=O)c4cc(OC)cc(OC)c4)n3)ccc21	Scavenger receptor class B member 1 (Mus musculus, UniProt Q61009)	DiI-HDL uptake, inhibitor	mouse cells	added: DiI-HDL	–	90 nM
COc1ccc2[nH]cc(/C=C/c3cccnc3)c2c1	APP amyloid-beta peptide	Aβ42 oligomerisation, ELISA	–	–	–	> 20000 nM
CC(C)C[C@H](NC(=O)c1cc(C(=O)O)cc([C@H]2CCN[C@@H]2C(=O)O)c1)C(=O)O	kainate receptor (rat)	binding, radioligand binding	rat cortical synaptosomes	added: [3H]kainate	–	66000 nM
CC(C)(C)c1ccc(SCC(=O)Nc2ccc3nc(SCC(=O)NC4CC4)sc3c2)cc1	ESR1	reporter gene, antagonist	HEC-1 transfected ERα luciferase reporter	–	–	20000 to 50000 nM

SMILES	target	assay	system	conditions	scale	IC50
COc1cc2nccc(Nc3ccc(NC(=O)c4ccc(C(C)(C)C)cc4)c(O)c3)c2cc1OC	PKN3 (Homo sapiens, UniProt Q6P5Z2)	binding, split-luciferase	–	–	–	> 50000 nM
NC(=O)c1cn(-c2ccc(F)cc2)c2ccc(CN3CCCSCC3)cc2c1=O	Grm2 (Rattus norvegicus, UniProt P31421)	calcium mobilization, negative allosteric modulator	–	–	–	138 nM
O=C(CCCn1c(=S)[nH]c2ccccc2c1=O)N1CCN(c2cccc(O)c2)CC1	ESR1	reporter gene, antagonist	HEC-1 cells transfected with ERα	added: estradiol 1 nM	–	10400 nM
Cc1ccc(S(=O)(=O)Oc2ccc(/C=C/c3c[nH]c4ccc(C#N)cc34)cc2)cc1	IDO1	enzyme activity, inhibitor	–	–	–	> 100000 nM
Nc1cccc(S(N)(=O)=O)c1	PH domain leucine-rich repeat-containing protein phosphatase 2 (Homo sapiens, UniProt Q6ZVD8)	enzyme activity, inhibitor	–	–	–	> 300000 nM
CN1CCN(Cc2ccc(NC(=O)c3cncc(C#Cc4cncc5ncccc45)c3)cc2C(F)(F)F)CC1	Kinesin-1 heavy chain/ Tyrosine-protein kinase receptor RET (RET/KIF5B, Homo sapiens, UniProt P07949+P33176, G810R)	cell viability, inhibitor, CellTiter-Glo	Ba/F3 KIF5B-RET G810R	–	–	14.1 ± 0.44 nM
COc1ccc(S(=O)(=O)N2CCN(c3ccc([N+](=O)[O-])c4ncccc34)CC2)cc1	TLR8 (Homo sapiens, UniProt Q9NR97)	reporter gene, inhibitor, SEAP reporter	HEK-Blue TLR8	–	–	5180 ± 670 nM
CN1CCC[C@@H]1C(=O)N[C@@H](Cc1ccc(-c2ccccn2)cc1)B(O)O	20S proteasome, β1 subunit (Plasmodium falciparum, UniProt Q8I0U7+Q8I6T3)	enzyme activity, inhibitor	–	added: Ac-nLPnLD-AMC	–	> 10000 nM
O=C(OC(C(F)(F)F)C(F)(F)F)N1CCc2c(cccc2-c2ccccc2)C1	ABHD6 (Homo sapiens, UniProt Q9BV23)	inhibitor, fluorescence	–	–	–	49 ± 2.6 nM
CS(=O)(=O)NCC#Cc1ccc(N2C(=O)[C@H](CC[C@H](O)c3ccc(F)cc3)[C@H]2c2ccc(O[C@@H]3O[C@H](C(=O)O)[C@@H](O)[C@H](O)[C@H]3O)cc2)cc1 (single isomer, unassigned)	NPC1L1 (Homo sapiens, UniProt Q9UHC9)	cholesterol uptake, inhibitor	MDCK-II expressing human NPC1L1	added: [3H]cholesterol	–	50.2 nM
O=C(O)c1ccc(NC(=O)C(NS(=O)(=O)c2cccs2)c2ccccc2)cc1Cl (centres unmarked)	Uracil nucleotide/cysteinyl leukotriene receptor, long isoform (GPR17, Homo sapiens, UniProt Q13304)	calcium mobilization, antagonist	1321-N1	–	–	4650 ± 540 nM
NS(=O)(=O)c1ccc(Cc2c(-c3cccc(-c4ccccc4)c3)nn(-c3nc(C(=O)O)cs3)c2C2CC2)c(F)c1	LDHA (Homo sapiens, UniProt P00338)	enzyme activity, inhibitor	–	–	–	40 nM
CCN(CCc1ccc(Cl)c(Cl)c1)C[C@H](O)COc1ccc(NS(C)(=O)=O)cc1	Glutamate NMDA receptor; Grin1/Grin2b (Grin1/Grin2b, Rattus norvegicus, UniProt P35439+Q00960)	–	–	pH 6.9	–	21 nM
CNC(=O)Oc1ccccc1C=C1Cc2cc(OC)c(OC)cc2C1=O	Cocaine esterase (CES2, Homo sapiens, UniProt O00748)	inhibitor	–	33 min preincubation, added: fluorescein diacetate	–	346 ± 29.1 nM
COc1cccc(C(=O)Nc2ccc(-c3nc4ccccc4[nH]3)cc2)c1	SYK with FCER1G	protein binding, inhibitor, TR-FRET	–	–	–	> 100000 nM
O=C(NCc1ccc(F)cc1)C(=O)[C@H](Cc1ccccc1)NC(=O)[C@H]1CCC(=O)N1Cc1ccc(F)cc1	CAPN1 (Homo sapiens, UniProt P07384)	enzyme activity, inhibitor	–	–	–	140 ± 20 nM
O=C(Nc1cccc(F)c1)c1cc(S(=O)(=O)N2CCOCC2)c(Cl)cc1Cl	Autotaxin (ENPP2, Homo sapiens, UniProt Q13822, F275A)	enzyme activity, inhibitor	–	added: FS-3	–	> 3000 nM
COc1ccc(C(=O)CCc2cc([C@@H](CCc3ccc(O)cc3OC)c3ccc(O)cc3)c(O)cc2OC)cc1	ALOX5 (Homo sapiens, UniProt P09917)	enzyme activity	cell-free	–	–	510 nM
Cn1cnc(S(=O)(=O)N2C[C@@H]3[C@H](C2)[C@@]3(CNC(=O)c2ccccc2Cl)CC2CC2)c1 (relative stereo)	SLC6A9 (Homo sapiens, UniProt P48067)	glycine uptake, inhibitor, [14C]glycine uptake	cells expressing target	–	–	19 nM
O=C(Nc1ccc(-c2nc3ccccc3s2)cc1)c1cccc([N+](=O)[O-])c1	SYK with FCER1G	protein binding, inhibitor, TR-FRET	–	–	–	> 100000 nM
CCC(NC(=O)C(CC(C)C)NC(=O)Cc1ccncc1)C(=O)C(=O)NCc1cc(OC)cc(OC)c1 (centres unmarked)	Calpain-2 catalytic subunit (Capn2, Mus musculus, UniProt O08529)	enzyme activity, inhibitor	pons-cerebellum membrane fractions	added: calcium 2 mM	–	498 nM
CN1CC[C@H](c2c(O)cc(O)c3c(=O)cc(-c4ccccc4F)oc23)[C@H](O)C1	SRC (Homo sapiens, UniProt P12931)	–	–	ATP at Km	–	> 10000 nM

Repeated from above:
SMILES	target	assay	system	conditions	scale	IC50
CN1CCC[C@@H]1C(=O)N[C@@H](Cc1ccc(-c2ccccn2)cc1)B(O)O	20S proteasome, β1 subunit (Plasmodium falciparum, UniProt Q8I0U7+Q8I6T3)	enzyme activity, inhibitor	–	added: Ac-nLPnLD-AMC	–	> 10000 nM
O=C(OC(C(F)(F)F)C(F)(F)F)N1CCc2c(cccc2-c2ccccc2)C1	ABHD6 (Homo sapiens, UniProt Q9BV23)	inhibitor, fluorescence	–	–	–	49 ± 2.6 nM
